# Experimental data of several laboratories.
# Numbered parts are unrelated; each lists some results of a single study.

# Study 1 — technique: protein-binding microarray; molecule type: double-stranded DNA, one strand shown; matrix: in vitro; concentration: not given; direction: higher = stronger binding
# Target: Max dimerization protein 1, bHLH-zipper, MAX partner unstated (MXD1, Homo sapiens, UniProt Q05195, residues 56-136)
# Setting: k-mer, scored over probes, only values ≥0.25
# Target sequence (chain): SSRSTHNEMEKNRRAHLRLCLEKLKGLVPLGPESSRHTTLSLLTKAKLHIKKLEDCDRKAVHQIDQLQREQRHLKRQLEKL
Oligonucleotide,E-score
CGTGTGCC,0.28
CACATGGC,0.457
CACCCACG,0.406
CCCCACTC,0.257
AACGTGGG,0.415
GCATATGC,0.341
CCCATGCG,0.418
TCACATGA,0.401

# Study 2 — technique: protein binding microarray; molecule type: double-stranded DNA, one strand shown; matrix: in vitro; concentration: not given; relative to: not given; direction: higher = stronger binding
# Target: Histone acetyltransferase KAT6A, winged helix 2, GST fusion (KAT6A, Homo sapiens, UniProt Q92794, residues 85-181)
# Setting: 8-mer, flanks averaged, mean of 2 arrays, mostly near background
# Residues (chain): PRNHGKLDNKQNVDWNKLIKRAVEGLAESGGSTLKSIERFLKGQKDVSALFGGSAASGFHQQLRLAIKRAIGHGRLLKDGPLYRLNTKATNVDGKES
Oligonucleotide,E-score
CCATCTGC,0.0548
ATGGCAGA,0.0724
CGTGAATC,-0.022
ATAATTTC,0.064
AGTAGTAG,-0.188
ATTCGTGA,-0.0916
ACCAGAGA,-0.136
ACTAATCC,0.0444
AATGTATA,-0.0191
CCAGCAGA,0.0894
GGCTCCAC,0.025

# Study 3 — technique: RNAcompete; molecule type: RNA; matrix: in vitro; concentration: 20 nM; setting: 7-mer, probes averaged, single round; relative to: mean of 7-mers; direction: higher = stronger binding
# Target: PABPC1L2, full length, GST fusion (mouse, UniProt A0ABA7IW68)
# Residues (chain): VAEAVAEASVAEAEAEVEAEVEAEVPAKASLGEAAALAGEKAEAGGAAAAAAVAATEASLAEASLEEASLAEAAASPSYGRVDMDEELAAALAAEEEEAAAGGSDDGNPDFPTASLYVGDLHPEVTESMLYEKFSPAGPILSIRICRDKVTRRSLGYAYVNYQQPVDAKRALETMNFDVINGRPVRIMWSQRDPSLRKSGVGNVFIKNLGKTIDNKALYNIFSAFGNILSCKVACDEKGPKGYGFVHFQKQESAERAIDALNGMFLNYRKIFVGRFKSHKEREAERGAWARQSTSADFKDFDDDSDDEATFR
Oligonucleotide,7-mer Z-score
AUACUCC,-0.135
UAAUCUG,-0.2
GAAUCUA,-0.132
ACUCUGA,-0.204
CAGGGGG,0.537
GCGGGGU,0.178
AUAUUCA,-0.0554
AUUAAGU,-0.0246
CCGUUGC,-0.46
AGGAAGA,0.2
UCCCUAG,-0.233
CUGAACG,-0.124
UAAUACU,-0.164
GUACGGG,0.0623

# Mixed results
Substance,target,test,test system,setting,scale,endpoint,value
"PhoQ, residues 284 288 289 292 302 303 TTSMTC","PhoP, residues 12 14 15 18 19 TPLRH (Escherichia coli, UniProt P23836)","Sort-seq, measured: YFP reporter",E. coli,"PhoQ-PhoP variant library, added: 10 µM Mg2+","relative to: high Mg2+ state, higher = stronger signaling",fold induction,1.26

# Repeated from above (study 1):
Oligonucleotide,E-score
CACCCACG,0.406
CACATGGC,0.457
TCACATGA,0.401
GCATATGC,0.341
